Assay results of several laboratories.
Every numbered part comes from another study and shows a few of its results, in no order. Changes are numbered by the printed parent chain.

Series 1
Target: CCNA2, cyclin fold, Cln2 fusion (human)
Method: yeast growth competition, sequencing
Medium: yeast
Notes: strong parent motif
Baseline: not given
Direction: higher = stronger binding
Parent: ORC1 docking peptide (human); PRARKRLELGNLG
Under “normalised enrichment score”, `G10F` is recorded as 4.02.
Under “normalised enrichment score”, `G10P` is recorded as 2.65.
`L12S`: “normalised enrichment score” 5.3.
Under “normalised enrichment score”, `G10C` is recorded as 4.06.
Under “normalised enrichment score”, `P1A` is recorded as 4.42.
`L12H` — result for “normalised enrichment score”: 5.23.
`G10H`: “normalised enrichment score” 5.02.
`K5W` — result for “normalised enrichment score”: 2.16.
For `L12Q`, “normalised enrichment score” read 5.12.

Series 2
Target: ABI1, truncated, D143A, DHFR fusion (Arabidopsis thaliana)
Method: DHFR PCA, deep sequencing
Medium: yeast
Notes: methotrexate growth selection, single substitutions
Added: (+)-ABA 0.032 µM
Baseline: wild-type fitted maximum
Direction: higher = stronger binding
Parent: PYL1, truncated, DHFR fusion (Arabidopsis thaliana); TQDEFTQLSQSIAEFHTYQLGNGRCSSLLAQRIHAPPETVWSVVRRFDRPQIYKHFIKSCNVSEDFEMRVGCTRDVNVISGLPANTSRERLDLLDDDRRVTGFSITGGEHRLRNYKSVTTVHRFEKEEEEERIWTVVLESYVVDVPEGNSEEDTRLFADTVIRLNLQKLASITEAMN; partner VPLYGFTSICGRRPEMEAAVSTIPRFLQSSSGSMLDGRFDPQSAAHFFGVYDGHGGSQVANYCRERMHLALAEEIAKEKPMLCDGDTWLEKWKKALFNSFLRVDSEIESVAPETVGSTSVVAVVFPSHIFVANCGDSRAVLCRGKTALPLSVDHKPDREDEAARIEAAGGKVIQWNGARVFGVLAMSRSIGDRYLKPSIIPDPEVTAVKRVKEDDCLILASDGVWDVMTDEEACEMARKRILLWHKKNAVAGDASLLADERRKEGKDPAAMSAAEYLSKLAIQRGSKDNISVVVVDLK
`S87P`: “relative binding score” 4.69%.
`I12F` — result for “relative binding score”: -1.23%.
`S9A`: “relative binding score” 37.7%.
`V40D`: “relative binding score” -6.07%.
`F103H` — result for “relative binding score”: 1.43%.
`Y18L` — result for “relative binding score”: -2.06%.
Under “relative binding score”, `E130A` is recorded as 31.9%.

Series 3
Target: Prothrombin, mature alpha-thrombin (F2, Homo sapiens, UniProt P00734)
Method: aptamer microarray, sandwich
Form: DNA with 2'F-ANA
Medium: in vitro
Concentration: 200 nM
Notes: whole 15-mer aptamer, many near background
Added: Cy3 exosite-II aptamer, 400 nM
Direction: higher = stronger binding
Sequence: GGTTGGTGTGGTTGG
`2'F-ANA at 5 6 9 10 11 12`: “mean fluorescence intensity” 77.8 a.u.
`2'F-ANA at 1 3 4 6 7 9 10 11` — result for “mean fluorescence intensity”: 60.9 a.u.
`2'F-ANA at 1 2 4 5 6 8 10 11 13 15` — result for “mean fluorescence intensity”: 56.4 a.u.
`2'F-ANA at 2 5 6 7 8 9 10 13 14 15` — result for “mean fluorescence intensity”: 49.7 a.u.
For `2'F-ANA at 1 3 4 5 6 8 12 13 15`, “mean fluorescence intensity” read 81.2 a.u.
For `2'F-ANA at 3 4 8 11 12 13 14 15`, “mean fluorescence intensity” read 392 a.u.
`2'F-ANA at 3 5 7 13 15` — result for “mean fluorescence intensity”: 95.5 a.u.
`2'F-ANA at 4 5 8 9 11 12 15`: “mean fluorescence intensity” 102 a.u.
`2'F-ANA at 3 4 7 8 9 10 11 15`: “mean fluorescence intensity” 258 a.u.
`2'F-ANA at 1 2 4 6 7 9 10 11 12 13 15`: “mean fluorescence intensity” 177 a.u.
`2'F-ANA at 3 5 6 7 8 10 13 14` — result for “mean fluorescence intensity”: 47 a.u.
`2'F-ANA at 2 5 7 9 11 12 13 14 15`: “mean fluorescence intensity” 47 a.u.
`2'F-ANA at 2 3 5 11 12 14 15`: “mean fluorescence intensity” 57.7 a.u.

Other studies, line by line
`PhoQ, residues 284 288 289 292 302 303 SIHLQL` has a fold induction of 14.5 (PhoP, residues 12 14 15 18 19 LHHSG (Escherichia coli, UniProt P23836); Sort-seq, item: YFP reporter; E. coli; PhoQ-PhoP variant library, added: 10 µM Mg2+; baseline: high Mg2+ state, higher = stronger signaling).

A few entries again (series 3):
`2'F-ANA at 1 3 4 6 7 9 10 11` — result for “mean fluorescence intensity”: 60.9 a.u.
`2'F-ANA at 3 5 7 13 15` — result for “mean fluorescence intensity”: 95.5 a.u.
`2'F-ANA at 5 6 9 10 11 12`: “mean fluorescence intensity” 77.8 a.u.
